Assay results from different studies.
Compare with care: the assays were run in different laboratories. Several values in a cell are separate wells, animals, samples, runs or records.

Structure (SMILES) | tested on | test | system | setting | how to read | quantity | value
CN1CCN(S(=O)(=O)c2cc([N+](=O)[O-])ccc2N(CCOS(C)(=O)=O)CCOS(C)(=O)=O)CC1 |  |  | NSG mice, sample CJ PDX | intraperitoneal, 25 mg/kg weekly x3 | baseline: treated over vehicle | EFS ratio (T/C) | > 10.8
CCCCC1(CCCC)CN(c2ccccc2)c2cc(SC)c(OCC(=O)N[C@@H](C(=O)NCC(=O)O)c3ccccc3)cc2S(=O)(=O)C1 |  | measured: LDL cholesterol | human, serum | 10 mg once daily, day 13 |  | serum LDL-C | 90.6 mg/dL
CC[C@H](C)[C@@H]1NC(=O)[C@@H]2CCCN2C(=O)[C@H](CC(C)C)NC(=O)[C@H](CC(C)C)NC(=O)CNC(=O)[C@@H](NC(=O)[C@@H](NC(=O)[C@H](CC(=O)O)NC(=O)CNC(=O)[C@@H](NC(=O)[C@H](C)NC(=O)CNC(=O)[C@H](CCCCN)NC(=O)[C@H](CC(C)C)NC(=O)[C@H](CC(C)C)NC(=O)[C@H](CCCCN)NC(=O)CNC(=O)[C@@H](NC(=O)[C@@H](N)CC(C)C)C(C)C)C(C)C)C(C)C)CSSC[C@@H](C(=O)O)NC1=O |  | RNA-seq, measured: Il27 | mouse, traumatic brain injury model, frontal cortex and hippocampus | dose not given | baseline: TBI alone | log2 fold change | -4.07
CN(C)C(=O)c1cc2cnc(Nc3ccc(N4CCNCC4)cn3)nc2n1C1CCCC1 |  |  | HR+/HER2− advanced breast cancer patients | dose not given, prior metastatic chemotherapy |  | median PFS2 | 46.5 months
Cc1nc(Nc2ccc(CC(=O)O)cc2)nc(Nc2ccc(F)c(C(F)(F)F)c2)c1C |  |  | C57BL/6J mice, high-fat diet, liver | intraperitoneal, 0.3 mg/kg daily, 60% fat diet 12 weeks, dosed last four | baseline: vehicle | triglyceride content | decreased
CN(C)CCCN1c2ccccc2Sc2ccccc21 | Plasmodium falciparum |  | D10 |  |  | IC50 | 15.8 µM
CC[C@H](C)[C@H](NC(=O)[C@H](CCCNC(=N)N)NC(=O)[C@H](CO)NC(=O)[C@H](Cc1ccc(O)cc1)NC(=O)[C@@H](NC(=O)[C@@H](NC(=O)[C@H](C)NC(=O)CNC(=O)[C@H](CCCCN)NC(=O)[C@@H](N)CCCCN)C(C)C)[C@@H](C)O)C(=O)N[C@@H](CO)C(=O)NCC(=O)N[C@@H](CCC(N)=O)C(=O)N[C@@H](Cc1ccc(O)cc1)C(=O)N[C@@H](CCCCN)C(=O)O |  | broth microdilution | 168, Mueller-Hinton broth | 16 to 18 h, 37 °C |  | MIC | > 96 µM
OCCN1CCN(CC/C=C2/c3ccccc3Sc3ccc(C(F)(F)F)cc32)CC1 | Plasmodium falciparum |  | 7G8 |  |  | IC50 | 2.51 µM
C[C@H]1O[C@@H](O[C@H]2CC[C@@]3(C)[C@@H](CC[C@]4(C)[C@@H]3C=C[C@]35OC[C@@]6(CCC(C)(C)C[C@H]63)[C@@H](O)C[C@]54C)[C@]2(C)CO)[C@H](O)[C@@H](O[C@@H]2O[C@H](CO)[C@@H](O)[C@H](O)[C@H]2O)[C@H]1O |  |  | Mus musculus, chronic-plus-binge ethanol-fed, AAV8-TBG-Null vector, plasma | oral, high dose, 5 h |  | total cholesterol | 2.65 mM and 2.79 mM and 3 mM and 2.75 mM and 2.28 mM
Nc1ncnc2c1ncn2[C@@H]1O[C@H](COP(=O)(O)O)[C@@H](OP(=O)(O)O)[C@H]1O |  | binding, MIDAS equilibrium dialysis LC-MS | A2AR-BRIL thermostabilized | concentration not given | baseline: no-protein control | log2 fold change | -0.309
